Measured values gathered from unrelated publications.
Each numbered part is a random draw from the data of one study; scales do not carry over between parts.

Block 1
Target: RING finger protein unkempt homolog, zinc fingers 1-6, GST-SBP tag (UNK, Homo sapiens, UniProt Q9C0B0, residues 30-357)
Technique: RNA Bind-n-Seq
Molecule type: RNA
Medium: in vitro
Concentration: not given
Notes: RNA with constant flanks, human and mouse sites, ends assumed
Baseline: input RNA pool
Direction: higher = stronger binding
Quantity: bound/input enrichment
Shared flanks, not repeated: GGGAGUUCUACAGUCCGACGAUC … CAACAGAGGAUUGAGCAUCA
Residues (chain): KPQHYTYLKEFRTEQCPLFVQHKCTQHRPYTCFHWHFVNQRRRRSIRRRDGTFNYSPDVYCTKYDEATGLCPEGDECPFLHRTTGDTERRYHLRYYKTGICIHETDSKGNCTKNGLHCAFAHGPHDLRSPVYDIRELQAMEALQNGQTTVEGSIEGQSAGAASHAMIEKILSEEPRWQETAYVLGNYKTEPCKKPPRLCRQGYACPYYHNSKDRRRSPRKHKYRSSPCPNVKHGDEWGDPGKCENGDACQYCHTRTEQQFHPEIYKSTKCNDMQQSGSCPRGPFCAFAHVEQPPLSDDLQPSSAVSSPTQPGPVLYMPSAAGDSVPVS
Strand = AUGUUUGGUUUUCCAGUGAGGAAAGCCACUGGGAACCUGACUGUGCCCUUUCCUGUCCUGAAUUUGUCUUCAGGCUUCAUCGGUCCCUCAGUUUUACUAUCCUUAUGAAACUCAGGCUUA; result = 0.0965 ratio
Strand = UUAAUAGGCUUAAUAAUUGUUGGCAAGGAUCCUUUUGCUUUCUUUGGCAUGCAAGCUCCUAGCAUCUGGCAGUGGGGCCAAGAAAAUAAGGUUUAUGCAUGUAUGAUGGUUUUCUUCUUG; result = 0.369 ratio
Strand = AAACUAACACUCUGUAAUUUUUCUUUUAUGUCUUAUUUUCCAAGAGUCCUCCAUUUUUUGCACCCCCUCACCGCCAACUCUGUUAUUCAGUAGAGAGAAGUGUACGGCUUUCUGAUUGGU; result = 0.951 ratio
Strand = GUGAUGUCUGGAGACAUGUUGGGUUGUCAAAACUGGGGUGGGGAAAAGGUUGCUACUGUGCAAUGCAUACCUCCUCAACACCCCCCCACACUCAGUAAAGAAUUUUCCAACCCAAAAUAU; result = 0.145 ratio
Strand = GAAGAGGAAAGAUUAGUAUCUCUUGUAUUUGGGCUUUUGAAACAAAGAAAACUUAAUUUUUUAGAAAUCUAUGGUGAAGAAAUGAUUAUUACAGCAAAGAACAUCAUUAAAGAGCGUGUG; result = 6.16 ratio
Strand = ACUUAUCUUUUUCUUUUUUCUAACUAAAAUUGUGAUGUUACAGAAAGUCAUUUUAUGUUCCUUUUUUGUCUGAUGAUCCAAUAUUUACUGAACUUUUUGUAAUUGGUGAUAAUUCUUUUU; result = 1.44 ratio
Strand = UACUGUGACCUCCAGCAAGAACCCAAUGGUAUCACCGGAAUCCUGAAGUGGGUAAAACUGAUAGACAACUUUGAAGGAGAAUACGACUACGUAACCAACGAGGGCACAGUGUUCACAUUC; result = 0.109 ratio
Strand = GUGUGGCGCGCUGUCUUCCCGCUCGCGUCAGGGACCUGCCCGACUCAGCGGCUGCCAUGGCAUCAGAUGAAGGCAAGCUUUUCGUGGGAGGACUCAGCUUCGACACCAACGAGCAGGCGC; result = 0.097 ratio
Strand = CUUGGAGAAGGUCCAAAAGCUUCUUUGCAUGUGUCCAGUGGAUUUCCAUGGGAUCUUCCAGUUAGAUGAAAGACGGAGAGAUGCAGUGAUUGCAUUGGGCAUUUUUCUGAUUGAAUCUGA; result = 0.103 ratio
Strand = AGAAACGGUGAACUCCCCAGCUAUUUAUAAAUUUCAGAGUCGUCGAAAACGUUGACGUGUUAUAGAUAAGCCUUGUCAUUCUGUAUCAAAAAUCUGUUGUCGUUUUCUAGUAACUUCAAA; result = 0.401 ratio
Strand = ACCACAGCACUUUGCAGGCAAGCAGGCCAAGAAGCCCUGUCAGUCCUCAGGUUCAGCAAGUCCUAGUGUCCUGAAAGCCACAGAAGUAAACAAGAGCUGCCGGCAGCUGAACAAUCGCUC; result = 0.188 ratio

Block 2
Target: UBE2C UBC core domain (UniProt O00762)
Technique: yeast two-hybrid
Medium: yeast
Notes: mostly zero background
Baseline: not given
Direction: higher = stronger interaction
Quantity: lacZ reporter activity
B1: TRIM3 RING domain (UniProt O75382); chain VQPMDKQFLVCSICLDRYQCPKVLPCLHTFCERCLQNYIPAQSLTLSCPVCRQTSILPEQGV
B2: TRIM35 RING domain (UniProt Q9UPQ4); chain PSRSFKEELLCAVCYDPFRDAVTLRCGHNFCRGCVSRCWEVQVSPTCPVCKDRASPADLRT
B3: RNF175 RING domain (UniProt Q8N4F7); chain LPTRSLSDNICAVCGQKIIVELDEEGLIENTYQLSCNHVFHEFCIRGWCIVGKKQTCPYCKEKVDLKRMIS
B4: TRIM10 RING domain (UniProt Q9UDY6); chain SVTSLADEVNCPICQGTLREPVTIDCGHNFCRACLTRYCEIPGPDLEESPTCPLCKEPFRPGSFRP
B5: RNF4 RING domain (UniProt P78317); chain TGLRPSGTVSCPICMDGYSEIVQNGRLIVSTECGHVFCSQCLRDSLKNANTCPTCRKKINHKRYHP
B6: RNF43 RING domain (UniProt Q68DV7); chain SGSSCSSAPVCAICLEEFSEGQELRVISCLHEFHRNCVDPWLHQHRTCPLCMFNITEGDSFS
B7: TRIM38 RING domain (UniProt O00635); chain STKKMMEEATCSICLSLMTNPVSINCGHSYCHLCITDFFKNPSQKQLRQETFCCPQCRAPFHMDSLRP
B8: TRIM52 RING domain (UniProt Q96A61); chain PMQTLQEEAVCAICLDYFKDPVSISCGHNFCRGCVTQLWSKEDEEDQNEEEDEWEEEEDEEAV
B9: MSL2 RING domain (UniProt Q9HCI7); chain LLPYFRQSLSCCVCGHLLQDPIAPTNSTCQHYVCKTCKGKKMMMKPSCSWCKDYEQFEENKQ
B10: UBE4A RING domain (UniProt Q14139); chain LQQQEEETYADACDEFLDPIMSTLMCDPVVLPSSRVTVDRSTIARHLLSDQTDPFNRSPLTMDQIRPNTELKEKIQRWLAERKQQKEQLE
B11: RNF150 RING domain (UniProt Q9ULK6); chain DKETESDFDNCAVCIEGYKPNDVVRILPCRHLFHKSCVDPWLLDHRTCPMCKMNILKALGIP
B12: RNF32 RING domain (UniProt Q9H0A6); chain SLLQGDSVQPCPICKEEFELRPQVLLSCSHVFHKACLQAFEKFTNKKTCPLCRKNQYQTRVIH
B13: PEX2 RING domain (UniProt P28328); chain DNTLATSGKECALCGEWPTMPHTIGCEHIFCYFCAKSSFLFDVYFTCPKCGTEVHSLQPLK
B14: TRIM15 RING domain (UniProt Q9C019); chain SLKVVHELPACTLCAGPLEDAVTIPCGHTFCRLCLPALSQMGAQSSGKILLCPLCQEEEQAETPMA
B15: PHF7 RING domain (UniProt Q9BWX1); chain IQHGHVGEESCILCCEDLSQQSVENIQSPCCSQAIYHRKCIQKYAHTSAKHFFKCPQCNNRKEFPQEML
Construct (chain): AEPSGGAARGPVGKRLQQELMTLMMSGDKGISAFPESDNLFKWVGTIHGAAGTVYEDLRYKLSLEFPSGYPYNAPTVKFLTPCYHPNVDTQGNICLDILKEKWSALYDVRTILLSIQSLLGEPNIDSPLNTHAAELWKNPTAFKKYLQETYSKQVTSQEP
Molecule = B1 (TRIM3 RING domain); result = 0
Molecule = B2 (TRIM35 RING domain); result = 0
Molecule = B3 (RNF175 RING domain); result = 0
Molecule = B4 (TRIM10 RING domain); result = 0
Molecule = B5 (RNF4 RING domain); result = 0
Molecule = B6 (RNF43 RING domain); result = 0
Molecule = B7 (TRIM38 RING domain); result = 0
Molecule = B8 (TRIM52 RING domain); result = 0
Molecule = B9 (MSL2 RING domain); result = 0
Molecule = B10 (UBE4A RING domain); result = 0
Molecule = B11 (RNF150 RING domain); result = 0
Molecule = B12 (RNF32 RING domain); result = 0
Molecule = B13 (PEX2 RING domain); result = 0
Molecule = LKQVSIRENCCSLCCDEVADTQLKPCGHSDLCMDCALQLETCPLCRKEIVSRIRQI (RSPRY1 RING domain (UniProt Q96DX4)); result = 0
Molecule = B14 (TRIM15 RING domain); result = 0
Molecule = B15 (PHF7 RING domain); result = 0

Block 3
Target: RNA binding protein fox-1 homolog 2, RRM domain, GST-SBP tag (RBFOX2, Homo sapiens, UniProt O43251-10, residues 100-194)
Technique: RNA Bind-n-Seq
Molecule type: RNA
Medium: in vitro
Concentration: 365 nM
Notes: natural RNA segment, single round, ends assumed
Baseline: no-protein control
Direction: higher = stronger binding
Quantity: RBNS enrichment (R)
Shared flanks, not repeated: GGGAGUUCUACAGUCCGACGAUC … UGGAAUUCUCGGGUGCCAA
Strand = CAGGAUGAGGAAGGUGCAUCCUAACCCUAACCGCCCGGCUCACCUGCGCUUGAAGAUGUAUGAGUUUGCAGGGCGGCUGGUGGGCAAGUGUUUGUAUGAAUCCUCUCUAG; result = 0.526
Strand = GCAUUUUAAUUAUUUGCAAAUUAAGGUGCCACAGACACAGACUUAGUGGUAUGUAAAUGUUGACUCGGAUCACAAUCAUGUAGCAGAGGGCACUGGGCCUGUUGCCUGCC; result = 0.567
Strand = UGAUAACCAAAUAGUAAUAUGCCAGUUCUUUCUUCUUUUUUUAGCUUCAGUAGUAGCUAAGCCAUUAAUACAGUUUGCAUCAAUUUCCCCAUUUAUUUAUAAUCAGCCUU; result = 0.941
Strand = CUCUGCACACAAUAGGUGCUUCUUGGAUGUUCUUGGGUUUGGAAAUAAGUGGAAAAUACGGGAUGUACCCCUGGGGGAAAAGCCUGGGUUGGGUUUAGAAAGAUCUCAGG; result = 1.11
Strand = GUUUGGCUCAAGAGCCUUUAUUUGGCCUGUUUGCCUUAAUUCUAUUACAUAGCAUACCUGUAUUUCAGUUAAAAACCAGACCCUAUGGUGUUGGGUAGACACUGACAGUU; result = 0.717
Strand = UUUUUUUUAAAGAAGAAAAAAAACUACAUAAUUUCUACCAGGGCCAUAUUAGCAGUGAAACAUUUUAAACUGCAGAAAUUGUGGUUUUGGUUCAGAAACAAGUUGUAUAU; result = 0.495
Strand = AUUUCCACUGCUCGGGCGCUCCAGUGGCCCCGCUGCAGUGAGAGCUGCGCCUGGUUUCGCCGGACAGAGUUGGUGUUUGGAGCCCAGCCGCCCUCGGGCGCACGGCCUGC; result = 0.55
Strand = AAAAUUUGAGGGGAAGAGAAAAAACUUACACGAGCACCGAAUUUCAAAUAAACGAAAAUGAGACAUGACCUCUUGCCCCUGGCUGUUCCUUUAGGAGUUCCCAAGCCCCU; result = 0.372
Strand = CAGACCUUACUGCUACUGCUGCUGCCAUUAAUGCUGUGCUCACUAUCUUGUCCAGGAUUUUAAGGAUGUCAGACUGCUGUAGAUGACUCAAUAAAUGUUUUGCCAUUUUU; result = 0.592
Strand = CCCUGCCCCCCUAGCUGAAGGGGUGUGCCAUACUACCUUAAAUGCAAACACUAGAUAUGCAAAACUGGAUUUUUUUAAUUUAUUUUUUAAAAGAGGGAGGUGUGGUAUAU; result = 0.614
Strand = AAACAUGUAAAAAUGUUUCAAAAAAAUAAUAAAAUAAAUAAAUACGAAGAAUAUGUCAGGACAGUCACUGCCUUCACCUUCUCCAUUUCACACCGGUGGUACAAGAAAUC; result = 0.782
Strand = ACAUGUUUGUAUAUCUACAUUUACAUUCUGCGCCCCAGAGCUAAGACAGACUGCGAAUCACUUUUCUGCUGUGAGGGUGAUGGUGCCUGAUGCGGUGUCUCGCCUAUCUC; result = 0.527

Block 4
Target: Histone acetyltransferase KAT6A, winged helix 2, GST fusion (KAT6A, Homo sapiens, UniProt Q92794, residues 85-181)
Technique: protein binding microarray
Molecule type: double-stranded DNA, one strand shown
Medium: in vitro
Concentration: not given
Notes: 8-mer, flanks averaged, mean of 2 arrays, mostly near background
Baseline: not given
Direction: higher = stronger binding
Quantity: E-score
Construct (chain): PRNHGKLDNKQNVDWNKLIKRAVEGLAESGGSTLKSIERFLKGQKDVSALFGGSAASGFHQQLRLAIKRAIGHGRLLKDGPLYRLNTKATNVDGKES
Strand = TAGATCAA; result = 0.0132
Strand = CATAGCTC; result = -0.0772
Strand = CTTGGAAA; result = 0.0557
Strand = AAAGTTTA; result = 0.0462
Strand = AGGACGAA; result = 0.16
Strand = AATCCCCA; result = -0.126
Strand = ATCCGCGA; result = 0.0639
Strand = CCAATGAG; result = -0.0953
Strand = GCAGCCAC; result = 0.0916
Strand = CGACTCCG; result = -0.0256
Strand = ACTCTATG; result = -0.00392
Strand = CATGGGTA; result = -0.2
Strand = AGAGATTG; result = -0.12
Strand = AGTAGCCG; result = 0.101
Strand = CTACTCTA; result = -0.103
Strand = ATACCTTG; result = -0.0674
Strand = AAACACTG; result = -0.0164
Strand = GGTCCTCA; result = 0.0445
Strand = CACCAACA; result = -0.0832
Strand = GCCAGATA; result = 0.0141
Strand = ATTGCGGG; result = 0.0112
Strand = ATCAACAA; result = 0.13
Strand = CCACCACA; result = -0.139
Strand = CAGTCCCA; result = -0.0695

For quick reference, copied from above (block 4):
Strand = CATGGGTA; result = -0.2
Strand = AATCCCCA; result = -0.126
Strand = CATAGCTC; result = -0.0772
Strand = CACCAACA; result = -0.0832
Strand = CCAATGAG; result = -0.0953
Strand = CTACTCTA; result = -0.103
Strand = ATCAACAA; result = 0.13
Strand = ACTCTATG; result = -0.00392
Strand = GCAGCCAC; result = 0.0916
